# Measured values from different studies.
# Each numbered part is a random draw from the data of one study; scales do not carry over between parts. Changes are numbered by the printed parent chain.

# Set 1
# Target: CCNB3, cyclin fold, Cln2 fusion (human)
# Method: yeast growth competition, sequencing
# Medium: yeast
# Notes: weak parent motif
# Reference: not given
# Direction: higher = stronger binding
# Starting sequence: CDC6 docking peptide (human); TLKGRRLVFDNQL
Substitution,normalised enrichment score
TLKGLRLVFDNQL [R5L],0.362
TLKGRRLVPDNQL [F9P],0.544
TLKGRRLPFDNQL [V8P],0.0159
TLKGRRLVYDNQL [F9Y],-0.0565
TLFGRRLVFDNQL [K3F],0.147
TLKGRRLVFDNSL [Q12S],-0.179
TLKGRRLKFDNQL [V8K],0.312
TLKGKRLVFDNQL [R5K],0.138
TLKGRRLVFDNYL [Q12Y],0.835
TLKGRRLTFDNQL [V8T],0.163
TLKGRRLRFDNQL [V8R],0.262
TLKGRRLVFENQL [D10E],-0.438
TLKGRRLVFDNTL [Q12T],0.265
DLKGRRLVFDNQL [T1D],-0.174
TLKGRRLCFDNQL [V8C],0.776
TLKGRRLVFDNQF [L13F],0.475
TLTGRRLVFDNQL [K3T],0.486
TLKGRRLVFPNQL [D10P],0.06
TLKGRRCVFDNQL [L7C],-0.135
TLKGRRLVKDNQL [F9K],0.666
TLKGRRLSFDNQL [V8S],0.369
TLKMRRLVFDNQL [G4M],0.78
TLKGRRSVFDNQL [L7S],0.504
TLKGRRLVFDNPL [Q12P],0.118
TLKGRRLVGDNQL [F9G],-0.08

# Set 2
# Target: RING finger protein unkempt homolog, zinc fingers 1-6, GST-SBP tag (UNK, Homo sapiens, UniProt Q9C0B0, residues 30-357)
# Chain of UniProt Q9C0B0 (30-357, looked up): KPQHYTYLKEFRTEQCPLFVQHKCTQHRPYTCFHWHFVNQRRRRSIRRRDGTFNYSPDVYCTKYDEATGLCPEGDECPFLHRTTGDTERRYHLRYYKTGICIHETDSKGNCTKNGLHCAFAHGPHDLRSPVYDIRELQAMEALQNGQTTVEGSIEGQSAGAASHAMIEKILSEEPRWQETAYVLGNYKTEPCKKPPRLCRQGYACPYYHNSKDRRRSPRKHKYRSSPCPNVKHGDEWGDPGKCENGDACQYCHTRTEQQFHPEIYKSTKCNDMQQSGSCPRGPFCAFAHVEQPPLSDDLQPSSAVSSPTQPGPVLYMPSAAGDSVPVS
# Method: RNA Bind-n-Seq
# Form: RNA
# Medium: in vitro
# Tested at: not given
# Notes: RNA with constant flanks, human-mouse chimeric sites, ends assumed
# Reference: input RNA pool
# Direction: higher = stronger binding
# Shared flanks, not repeated: GGGAGUUCUACAGUCCGACGAUC … CAACAGAGGAUUGAGCAUCA
Strand,bound/input enrichment
CAGUCCCGCGACAGCGUUGCAGGACGAUGUGAACAAAAACUCAAAGCGGACCCUCUAUUGUAGUUCUUGAUUCUCGAAAUGUGCUAUUAUUGUUUGUCUUUUUUUUUUUUUUUUUAAAGA,0.958 ratio
UAAGUCCUGUGCCAGCACUUCGCUCAUAAAGUUUUAAAUUCAAGAAAAAUAGUGUUUGUUUCCUGAUUUUUGUAUUCAAUACUUUGCCUAGUAUGUAACUCACUCUUACUGAUAAUAAAA,1.7 ratio
AAAGGCAGCUGUGUUAUCUGUGUCAUUUCAUAAGUAACUCUGGGGGAGGGAAAUUCUGUUCUUUUGUUUAAUUUUCCCCCAAAUGAAGCCAAAGUGUGUGUUGAAGAACUGAGAAAAAAU,0.224 ratio
CAGCCUCAGAGCCCAGACUUCCUGGACAUUACCAACCCUAAAGCGGUAUUAGAAAAUGCAUUGAGAAACUUCGCCUGUCUGACGACUGGGGAUGUGAUUGCUAUCAACUACAAUGAGAAG,0.503 ratio
UCAGGAACCCAGACAAAUAUGAAUGUAAAUGAAGUCAUUAGCAACAGAGCAAUUGAAAUGUUAGGAGGUGAACUUGGCAGCAAGAAGCCUGUGCAUCCCAAUGAUCAUGUUAACAAAAGC,0.388 ratio
UUGGAAGGACCAGAGCCUAAUCAACUGAAACCAUUAGUCAUACAGGCUAUGCCCACCCUAAUAGAACUAAUGAAAGACCCCAGUGUAGUUGUUCGAGAUACAGCUGCGUGGACUGUGGGC,0.467 ratio
UCGGAUGAGGUGCUGGGUCACUUUUCAUAUCCAGAUCCUUCACAGUGGACAGAUGAAGAACUGGGAAUCCCUCCUGAUGACGAGGACUGACACUGUAAACUCUCUGGACGAGUAGGAGCA,0.827 ratio
CAGUCCCCGUGUCCCAGGGGACAAUGUUGUGAACAAAAACUCAAAGCGGACCCUCUAUUGUAGUUCUUGAUUCUCGAGUGCCAUUAUUAUUGUUUGUCUUUUUUUUUUUUUUUUUAAAGA,1.6 ratio
AAAGCCCAAGUAUUUUGAAAAAACUCGAACAGAUUUGACAAGGGUAGCCAGCUUGGAGUCUAGCAAUUUGCCAAUGUGUUUACCAAUCUGGGGGCUUGUUUUUCUUUUCUUCUUUCAAAU,0.506 ratio
UGUGAACUGUCUCUUGAGAUCUAAAAACAAGAUGACUUUUCCUGGCACAUAUUCCAAAGCAAAGACUUUGUUACCUGCUGCUUCUUGUCUAAUUUACAGGGAUAUUUAAUUUUGUCAGGU,0.136 ratio
GUAGCUGGGACUACAGAAAUGCUGGUAAUUUCAGUCACUUGCUGAUGACUUCUGAUGUCCCAGCAAAUAAUGCCACAGUUGACUGCUGAGAAGAUACUUCUGAGGACCCACGUCUAAGGU,0.129 ratio

# Set 3
# Target: Fragile X messenger ribonucleoprotein 1, C-terminal low-complexity region (Fmr1, Mus musculus, UniProt P35922)
# Method: RNA Bind-n-Seq
# Form: RNA
# Medium: in vitro
# Tested at: 200 nM
# Notes: whole 134-nt RNA, ends assumed
# Added: 150 mM KCl
# Reference: input library
# Direction: higher = stronger binding
# Shared flanks, not repeated: GGGAGUUCUACAGUCCGACGAUC … UGGAAUUCUCGGGUGUCAAGG
Strand,log2 enrichment
CUGUGCUACACAUCGUAUGUACCGAAUCGGGGAAAAAAAGGGAAAAAAAGGGAAAAAAAGGGAAAGUAUUAUGUUACGCCGUUCGGAUCU,-0.533
UAACUUUAGAGGAGGAUCUGAUGGAUAUGGCAGUGGACGUGGAUUUGAGGAUGGCUAUAAUGGGUAUGGAGGAGGACCUGGAGGUGGCAA,0.332
UGCUUCUGAGUUGCCCAGGAGACCACUGGCAGAUGUCCCGGCGAAGAGAAGAGACACAUUGUUGGAAGAAGCAGCCCAUGACAGCUCCCC,0.156
ACCAUGCAGGUGGGCAUUUUUGGGAAGUGGGGCAAGGGGGGGAUAGGGAGGGGGGUAACACUUUGGGAACAGGUGGUCCCAGGUCGUUUC,0.782
UGGGAGGUGGAUUUUGUUUAUUUUUUUAGCUCAUUUCCAGGGGUGGGAAUUUUUUUUUAAUAUGUGUCUUGAAUAAAGUUGUUUUUGAAA,0.239
UGGCCCUGGUGGCAUGCGGGGAGGAAGAGGUGGCCUCAUGGAUCGUGGUGGUCCCGGUGGAAUGUUCAGAGGUGGGCGUGGUGGAGACAG,0.557
AUGCACUUGACAUAGUAGCAAAUUGGUUCUGAAUUAUGCAACUGUUUGCUAUUUAGUAAACUAGCAAAUGAUGCAUGUAUUUUGUUUUUC,-1.47
UCCUGUGCUACACAUCGUAUGUACCGAAUCAAAUUUUUAAACCCCCAAACCCCCCCAAAAAAGUAUUAUGUUACGCCGUUCGGAUCUGCA,0.00422
UGCAGCUGCUGGCCGCCUCCUAUGACCUGCACCGCUACUUCUACACGGGUGCCGAGAUCCUGGGCCUCAUCGACGAGAAGCACCGCGAGC,-0.103
GACUCUGAAGAAGAAGCUAUGGAGACUACACCAGCCAAAGGAAAGAAAGCUGCAAAAGUUGUUCCUGUGAAAGCCAAGAACGUGGCUGAG,-1.43
CAAGUCCUGUGCUACACAUCGUAUGUACCGAAUCGGGGCCCGGCCCGGGCCCGGGAAAGUAUUAUGUUACGCCGUUCGGAUCUGCACUUC,-0.801
UCCUAGUCCUAGGAAAACUCCAGUUGCCAGUGAUCAACGCCGUAGGUCCUGCAAAACAGCCCCUGCUUCCAGCAGCAAAUCUCAGACAGA,0.0483
UAGCAUAUUGCCUUGUUCACUACCGAGGAGAUGAGAAGAUUAAAGGUUUCAUAUGGGAUCUCAUUACUCCAACUGAAGAUGGACAGACAC,0.196
UGGCCCUGGUGGCAUGCGGGGAGGAAGAGGUGGCCUCAUGGAUCGUGGUGGUCCCGGUGGAAUGUUCAGAGGUGGCGGUGGUGGAGACAG,0.301

# Set 4
# Target: RNA binding protein fox-1 homolog 2, RRM domain, GST-SBP tag (RBFOX2, Homo sapiens, UniProt O43251-10, residues 100-194)
# Method: RNA Bind-n-Seq
# Form: RNA
# Medium: in vitro
# Tested at: 365 nM
# Notes: natural RNA segment, single round, ends assumed
# Reference: no-protein control
# Direction: higher = stronger binding
# Shared flanks, not repeated: GGGAGUUCUACAGUCCGACGAUC … UGGAAUUCUCGGGUGCCAA
# Residues (chain): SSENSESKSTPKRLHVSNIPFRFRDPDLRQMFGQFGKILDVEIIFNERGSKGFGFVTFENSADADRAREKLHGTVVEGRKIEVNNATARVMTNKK
Strand,RBNS enrichment (R)
UAGCCUGUAUGAAAUCACUAGUCCUUAUUUUUAAAGGUCUAUGGUUUCUUGGAAGUAGUUUGAUUGUUGAGAGAGACCUUUGAUCUGCAGUGUAAAUCUACCAGUCAUGG,0.603
GUACAUAAUGUACCAUCCCAUGUGGAAUCUGUGAGUGUCCUCUUAAGUAGCGUGGGCUAGCCAAUCUGCCGUUCAUGGUGUAUUGUAAACUCCGAAUUCCAUAUGUAAUA,0.207
CGUUACCUAAGCUAGCGUGGGCUUCCAGUUGCCUUAAUAGAAGUACUCAAGUCUCUUGGGUAGAGAUCUGGAAGCCUGCAGGAGAGGAGGGGUACUUGUUUUCAUUGGAA,0.526
UUCUUUCAAAUCUGAGUGUUGCCUGCUGAACUCGGAGGGGAGUUUGGAGAAAUUUUAGACAGCAGCUCUGUGUUCUUUUUUUGCCGCAGCCAAUAAGAUAAUAGCAGAAU,3.32
ACAUCACAUGAAUAAAGGUAUGUAUGUACGAAUGUGUAUAUAUUAUAUAUAUGACAUCUAUUUUGGAAAAUGUUUGCCCUGCUGUACCUCAUUUUUAGGAGGUGUGCAUG,0.995
GCUCUCCCACGCCUGGACUGAGGAAUGCUGGGCAGAAGGCCCCACCAUCUUCUUUCAUUCUGUGCUGUGGUCUGCAGUGGAAACAGCAGGCCUUUCAGCUCCUUGUGUGC,0.289
AGCAGCCAGCAUUCAGUGGCCUUGUCACCAAGCUCCACACCUCCUCCUGGUGCUGGCUUUGGUGACAUCACAAGGCCCCUCCAGGUGCAGGGGCUUCUGUUUGGCAGGCC,0.23
AUUCUCAAAACUGUCUGUCUCAUCAUGAGGAAAAAGGAACUUUCUUUUGUUCCUAUUCAGGACUUGAGGUAUAGUGCCAUAAAAUGUAGCAAAAACCCUAUCGGCCAGAU,0.302
GUUAAAGGGACGAGUCUGCCUUCCUGGCUGUGACACGGGACCCCUUUUCUACAGACCUCAUCACUGGAUUUGCCAACUAGAAUUCGAUUUCCUGUCAUAGGAAGCUCCUU,0.397
GAACACGUCCAGCCAAUCACCUGAAAUUGGGGUGUACAGAGAGGGUGCUGCUGUCACCCAGCUAUCUCUCCUUCCUCUAUGAUCUUUGUUUUCUGCCUUCCCACCUUCUC,0.427
CACUGCCUUCACCUUCACCUUCAUCCAUGUCCAACCCCCGACUUCAUCCCAAAGGACAGCCGCCUGGAGAUGACUUGAGGCCUUACUUAAACCCAGCUCCCUUCUUCCCU,0.471
AGACACAGGAAGAAUGGGCUGCAGAAGAUUUAGAUGUUUUCCAUUUGGGCACAUUUUACUUAGCUGGAGAACUAGGUUUAAAACAGCCUGGGUAGGAAAAUUAGAAGCAA,1.13

# Repeated from above (set 3):
Strand,log2 enrichment
UGGCCCUGGUGGCAUGCGGGGAGGAAGAGGUGGCCUCAUGGAUCGUGGUGGUCCCGGUGGAAUGUUCAGAGGUGGCGGUGGUGGAGACAG,0.301
CUGUGCUACACAUCGUAUGUACCGAAUCGGGGAAAAAAAGGGAAAAAAAGGGAAAAAAAGGGAAAGUAUUAUGUUACGCCGUUCGGAUCU,-0.533
UGCUUCUGAGUUGCCCAGGAGACCACUGGCAGAUGUCCCGGCGAAGAGAAGAGACACAUUGUUGGAAGAAGCAGCCCAUGACAGCUCCCC,0.156
UCCUAGUCCUAGGAAAACUCCAGUUGCCAGUGAUCAACGCCGUAGGUCCUGCAAAACAGCCCCUGCUUCCAGCAGCAAAUCUCAGACAGA,0.0483
UAGCAUAUUGCCUUGUUCACUACCGAGGAGAUGAGAAGAUUAAAGGUUUCAUAUGGGAUCUCAUUACUCCAACUGAAGAUGGACAGACAC,0.196
